Measurements gathered from unrelated publications.
A part holds a random share of what one study measured. Changes are numbered by the printed parent chain.

Series 1 — technique: RNA Bind-n-Seq; form: RNA; sample: in vitro; tested at: not given; baseline: input RNA pool; reading: higher = stronger binding
Target: RING finger protein unkempt homolog, zinc fingers 1-6, GST-SBP tag (UNK, Homo sapiens, UniProt Q9C0B0, residues 30-357)
Setting: RNA with constant flanks, human and mouse sites, ends assumed
Construct (chain): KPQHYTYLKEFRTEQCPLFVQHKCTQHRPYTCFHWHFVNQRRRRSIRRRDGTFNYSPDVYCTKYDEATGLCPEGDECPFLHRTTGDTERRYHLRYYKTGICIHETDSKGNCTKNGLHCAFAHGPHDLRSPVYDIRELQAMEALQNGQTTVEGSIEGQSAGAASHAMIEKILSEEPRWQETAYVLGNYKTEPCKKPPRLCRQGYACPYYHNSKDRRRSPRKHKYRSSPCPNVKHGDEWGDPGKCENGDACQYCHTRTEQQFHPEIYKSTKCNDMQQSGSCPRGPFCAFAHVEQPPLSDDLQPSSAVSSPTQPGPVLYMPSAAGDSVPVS
For `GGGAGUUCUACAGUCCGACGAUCGAAUCAGAAGUGACUCUGGGCAAGGACGUGGUUAUACUUCCAGAAACAAAGGUGGCUGAGUUUAACAAUGUGACUCCACUUUCAGAAGAAGAGGUAACCUCAGUCAAGGACAUGUCUCCGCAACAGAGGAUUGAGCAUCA`, the bound/input enrichment was 0.0993 ratio.
For `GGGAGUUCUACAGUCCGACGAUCGACCCAUAUUUCCACGAUCGUGUUGCUUCCUUCUAUGAAGGUCAGGUUGCAAUAUGGGAUCUUAGAAAAUUUGAGAAGCCAGUUUUGACAUUGACUGAGCAACCAAAACCCUUAACAAAACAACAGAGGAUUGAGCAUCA`, the bound/input enrichment was 0.513 ratio.
The bound/input enrichment of `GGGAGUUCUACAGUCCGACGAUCGAGAUGAAGAAGAAGAUUAACAUGGAGUUGAAGAACAGAGCCCCGGAGGAGGUGACAGAGUUAGUCCUCGAUAAUUGCUUGUGUGUCAAUGGGGAAAUCGAAGGCCUGAAUGACACCUUUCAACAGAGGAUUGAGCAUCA` is reported as 0.212 ratio.
`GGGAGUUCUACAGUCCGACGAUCUCCAAGGGGUCGGAGUCUGAAAGGGGAAAGCUACGAGGAGGGGACAGAGACUGGAGAGAAACGGAAUCACAGACACACAUUUUGUUUAAAUGGUCUAAACUGCCUGUUUGGUGGCAUUUACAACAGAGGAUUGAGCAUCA` has a bound/input enrichment of 0.36 ratio.
For `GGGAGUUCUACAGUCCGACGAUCUACAGCACCGUCUCUGGUGGCUACGCGGAAUUUGCUCUUGCAGCCGAUGACACUAUCUACCCCCUGCCCGAGACACUGAACUUCAGGCAGGGGGCUGCCCUGGGGAUCCCGUACUUCACGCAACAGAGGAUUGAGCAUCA`, the bound/input enrichment was 0.0833 ratio.
For `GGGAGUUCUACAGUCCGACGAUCUCGGAGCUAUGCGGUGGUGCUAGAAUUUGUUAUAUUUUCCAUGAGACUUUUGGGCGAACCUUAGAAUCUGUUGAUCCACUUGGUGGCCUUAACACUAUUGACAUUUUGACUGCCAUUAGACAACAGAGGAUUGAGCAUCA`, the bound/input enrichment was 3.36 ratio.
`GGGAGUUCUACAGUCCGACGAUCCUAGAGGAGGGCAUGGAUAAUUACAAGAGCUUCCUUGGUGGGGAUUCUCCUUCUAUGGUUGAUUAUCUUACUUGGCCUUGGUUUCAGCGACUGGAAGCAUUGGAGCUCAAGGAGUGUCUACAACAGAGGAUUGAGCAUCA` has a bound/input enrichment of 0.151 ratio.
`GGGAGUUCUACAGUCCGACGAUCGCCAUUUUUCCAGAUGGGACUCACAAUGACACAUGGCAGUGCCAAGGCUAUUUCACUGCACUUGAACAGUUCAUCAAAGAAGUCGUAAAGAGCCAUUCUCCUGAAGAAAUGGCAAAAACUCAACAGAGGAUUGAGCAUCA` gave a bound/input enrichment of 0.117 ratio.
`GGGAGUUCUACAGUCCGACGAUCUUCACCGCCUUGGAGGAUUUUGUUCAGCACAAGAUUCAGAAGGCCUGCCAGCGGGCCCCUCCGGAGGCCCUGCCUGCCACCCCUGCCACCACAGCGUUGCUGGGCCAGGAGGUGGUGCCGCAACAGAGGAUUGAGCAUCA` has a bound/input enrichment of 0.168 ratio.
`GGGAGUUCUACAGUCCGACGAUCGACCCCAUGGCAUCCCCACGAACCAUAACUAUCAUGGCCCUCUCAGUGGCCCUGGGACUCUUCUUUGUUUUCAUGGGGACCAUCAAGUUGACCCCCAGGCUCAGCAAGGAUGCCUACAGUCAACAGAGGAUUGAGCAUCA` has a bound/input enrichment of 0.138 ratio.
The bound/input enrichment of `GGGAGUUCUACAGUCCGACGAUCCAGAUGAUUCUUGACAAGAAGUUUCAUGGGAUUUUGGACCAGGGGGAGGGUGUCCUGAUCAUUUUCGAUGAACCCCCAGUAGAUAAAACUUAUGAAGCUGCUCUGGAAACUAUUCAGAACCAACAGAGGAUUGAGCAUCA` is reported as 0.959 ratio.

Series 2 — target: CCNA1, cyclin fold, Cln2 fusion (human); technique: yeast growth competition, sequencing; sample: yeast; setting: weak parent motif; baseline: not given; reading: higher = stronger binding
Starting sequence: DBF4B docking peptide (human); LGYLYLLLTQSLW; partner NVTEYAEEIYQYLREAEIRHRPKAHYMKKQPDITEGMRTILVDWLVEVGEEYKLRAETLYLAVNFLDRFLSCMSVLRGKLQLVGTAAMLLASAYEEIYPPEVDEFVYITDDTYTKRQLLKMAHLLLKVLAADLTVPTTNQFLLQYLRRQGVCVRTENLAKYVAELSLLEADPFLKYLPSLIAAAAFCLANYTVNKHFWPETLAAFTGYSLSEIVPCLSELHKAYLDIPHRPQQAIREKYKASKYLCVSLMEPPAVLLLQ
For `Y3A`, “normalised enrichment score” read -0.541.
`L7A` — result for “normalised enrichment score”: -0.891.
`L4A`: “normalised enrichment score” -0.117.
`G2A`: “normalised enrichment score” -0.22.
`L6A` — result for “normalised enrichment score”: -0.376.
Under “normalised enrichment score”, `T9A` is recorded as 0.217.

Series 3 — technique: RNA Bind-n-Seq; form: RNA; sample: in vitro; tested at: 365 nM; baseline: no-protein control; reading: higher = stronger binding
Target: RNA binding protein fox-1 homolog 2, RRM domain, GST-SBP tag (RBFOX2, Homo sapiens, UniProt O43251-10, residues 100-194)
Setting: natural RNA segment, single round, ends assumed
Target sequence (chain): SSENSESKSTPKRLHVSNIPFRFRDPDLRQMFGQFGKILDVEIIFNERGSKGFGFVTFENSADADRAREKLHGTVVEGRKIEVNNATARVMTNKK
`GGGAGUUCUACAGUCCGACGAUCGGACACUGUGUGACGUCAGCAUCUCAGACAGGCAGGAGAAAAGCACCAGAUACCUGGCUUUCCAUGGUGUGAGCAUUCAGACUGAGAUUAGAACCGCAAUGCAGGCUUGGUGGAAUUCUCGGGUGCCAA`: “RBNS enrichment (R)” 0.906.
For `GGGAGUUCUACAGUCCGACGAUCUUAAAAAUCGUAUGAAAGUCUACAUCAGCUGAAUUGUCCUAGCUUGAUAAGCACUUGGAGGGGGACUUGGAAGGUGAGAAAGAUACUGCAUUUUCUCAUGAGUCUCCAAGUGGAAUUCUCGGGUGCCAA`, “RBNS enrichment (R)” read 0.471.
Under “RBNS enrichment (R)”, `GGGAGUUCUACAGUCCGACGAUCCACCUCUUCUCUUCCUGCCCGGCUCUGCUUCUGUGUCUUGAUGUCAGCUCACACAAUUCCAAAGGAAACUGGCCUUGCUGAGGGUGCUGCCUGCCUGCGAGGCACCUGCCUGGAAUUCUCGGGUGCCAA` is recorded as 2.08.
`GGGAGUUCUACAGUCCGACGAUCUUCUGGACAGCAAUGGAUAUUUUACUAAAAAGGAAGCUUUGAUUCCUUUUUCUCUAGGGAGAAGACAUUGUCUUGGAGAACAGCUGGCUCGAAUGGAAAUGUUCUUGUUUUGGAAUUCUCGGGUGCCAA` — result for “RBNS enrichment (R)”: 0.292.
`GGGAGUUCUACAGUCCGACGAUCAAUCCAGGAUGGCAGAGAUCCCCUGUCCCUGGAAGGUGUCAUAUAUUACUAGCUAGUAUUAGGUUGAAGUUGGGGGUGGGGGCUUUCUCCGUAGGCUUGGGGAUGGUUCCUGGAAUUCUCGGGUGCCAA`: “RBNS enrichment (R)” 0.281.
Under “RBNS enrichment (R)”, `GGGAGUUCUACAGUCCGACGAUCAAGCACAGCCUUCCCUGUUCCGUCCCAGCGGGAGCUGGUGUUAGGGGUCCCAAGGUUGCCACCCACGUGCCCAGCUGUCCCACGCUGCAGCGCAGACGGCCACGCCCACAUGGAAUUCUCGGGUGCCAA` is recorded as 0.255.
`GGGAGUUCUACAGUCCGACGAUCGCGGGACCCCACCACGAGUGCUUCCAGAACCGCAACAGGAUAUCAGUCCUGCAUCUUCUGUGUAGUAACAGGGUCCUUCGGGCUCCACAGUCAGUGCAGGUGGCUAGUCAUGGAAUUCUCGGGUGCCAA` — result for “RBNS enrichment (R)”: 0.263.
`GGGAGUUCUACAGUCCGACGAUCGAAAACGAUUCUGUCAAGAUCCAAUUGGCUCUAGAUCUACAUUCUUCAAACAAAAUUGGCGUAACUGUUUCAUCUUUAAGUAGCAGUUUGCUGCCAUUUGUAUUCAGCUGUGGAAUUCUCGGGUGCCAA`: “RBNS enrichment (R)” 0.21.
Under “RBNS enrichment (R)”, `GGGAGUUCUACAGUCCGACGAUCUGUCCACGGGGUCGAUGCUGUUAUUAGGUGAAAAUAGUGUGAUCUUUAAGACUUUAAAUACAGAUUUAGUUUUGAGUGUUUGAGAGACCACUACACUUGUAUGGUUGAGUUGGAAUUCUCGGGUGCCAA` is recorded as 0.63.
`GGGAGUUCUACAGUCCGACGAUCUCCUCUUGUAAGUGCCCUUCUAAUAAACUUUUCAUGGAAAAGCUCCUGUGCCAGGAGCUCAGUCUGAUUCUUGCUGCUGUCUCUGGGUGGAGAGAAGAUUUAAAAGGGAGUGGAAUUCUCGGGUGCCAA`: “RBNS enrichment (R)” 0.547.
`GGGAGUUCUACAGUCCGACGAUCUUGAGUUUGUUUUACCAGAUGCUCAGCUUGCUAACACACUUGAGAUCAGACCAUACUCUGAGCAGACAUGGAAAGGAUUGCUUUGUGAAGACCAGGGGGAGUCAGGUGGUUGGAAUUCUCGGGUGCCAA` — result for “RBNS enrichment (R)”: 2.35.
For `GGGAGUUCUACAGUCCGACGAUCACCCAAAAGUCAAUGUAGACCUACGAAACGGUCAGGUGAUGGGCUAGGGACGUAUCUUCAAACUCCAUUUCUUCCUCUGUAGUAGCCCAGUCCAGGACUUUGGAACCCUGUGGAAUUCUCGGGUGCCAA`, “RBNS enrichment (R)” read 0.63.

Series 4 — technique: DHFR PCA, deep sequencing; sample: yeast; together with: (+)-ABA 0.0091 µM; baseline: wild-type fitted maximum; reading: higher = stronger binding
Target: ABI1, truncated, D143A, DHFR fusion (Arabidopsis thaliana)
Setting: methotrexate growth selection, single substitutions
Starting sequence: PYL1, truncated, DHFR fusion (Arabidopsis thaliana); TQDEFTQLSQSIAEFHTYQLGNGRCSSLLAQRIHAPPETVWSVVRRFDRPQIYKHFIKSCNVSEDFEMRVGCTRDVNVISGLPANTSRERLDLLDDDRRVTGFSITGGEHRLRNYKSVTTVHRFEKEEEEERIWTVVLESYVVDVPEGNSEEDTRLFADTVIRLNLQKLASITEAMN
`N114T`: “relative binding score” -0.388%.
`S150E`: “relative binding score” 8.37%.
For `Y18S`, “relative binding score” read 1.91%.
For `L166P`, “relative binding score” read 9.78%.
`V76E`: “relative binding score” -3.17%.
For `E14S`, “relative binding score” read 2.33%.
Under “relative binding score”, `E67F` is recorded as 1.89%.
Under “relative binding score”, `E129D` is recorded as 47.1%.
Under “relative binding score”, `A158V` is recorded as 54.9%.
Under “relative binding score”, `E174G` is recorded as -5.57%.
Under “relative binding score”, `F66Q` is recorded as 5.19%.
`F56D` — result for “relative binding score”: 0.976%.
`R90H`: “relative binding score” -5.25%.
`H16C`: “relative binding score” 0.18%.
`H16Y`: “relative binding score” 1.21%.
For `E139S`, “relative binding score” read 4.9%.
